Results from different studies.
Each line is one published result; not all experiments were run side by side. Values joined by “and” are separate records of one study, mostly repeats; a detail may differ. ± marks the error that the study gave. In brackets after ≈: the same amount, converted by molar mass.

Structure (SMILES)	organism	assay	system	conditions	how to read	measurement	value
O=[N+]([O-])c1ccc(-n2nc(-c3ccccc3)cc2-c2ccc(F)cc2)c([N+](=O)[O-])c1	Japanese encephalitis virus	–	Neuro2a, SA14-14-2	15 µM, 96 h	–	virus titre	5.25 log10 TCID50
CC[C@H](C)[C@H](NC(C)=O)C(=O)N[C@@H](CO)C(=O)NCC(=O)N[C@H](C(=O)N[C@@H](CC(N)=O)C(=O)N[C@@H](C)C(=O)N[C@@H](CO)C(=O)N[C@H](C(=O)N[C@H](C(=O)N[C@@H](CC(N)=O)C(=O)N[C@H](C(=O)N[C@@H](CCC(N)=O)C(=O)N[C@@H](CCC(=O)O)C(=O)N[C@@H](CCC(=O)O)C(=O)N[C@H](C(=O)N[C@@H](CCCCN)C(=O)N[C@@H](CCCNC(=N)N)C(=O)N[C@@H](CC(C)C)C(=O)N[C@@H](CC(N)=O)C(=O)N[C@@H](CCC(=O)O)C(=O)N[C@H](C(=O)N[C@@H](C)C(=O)N[C@@H](CCCCN)C(=O)N[C@@H](CCCCN)C(=O)N[C@@H](CC(C)C)C(=O)N[C@@H](CC(N)=O)C(=O)N[C@@H](CCC(=O)O)C(=O)N[C@@H](CO)C(=O)N[C@@H](CC(C)C)C(=O)N[C@H](C(=O)N[C@@H](CC(=O)O)C(=O)N[C@@H](CC(C)C)C(=O)N[C@@H](CCC(N)=O)C(=O)N[C@@H](CCC(=O)O)C(=O)NCC(=O)NCC(=O)NCC(=O)N[C@@H](CO)C(=O)NCC(=O)NCC(=O)NCC(=O)N[C@@H](CSSC[C@H](NC(=O)CNC(=O)CNC(=O)CNC(=O)[C@H](CO)NC(=O)CNC(=O)CNC(=O)CNC(=O)[C@H](CCC(=O)O)NC(=O)[C@H](CCC(N)=O)NC(=O)[C@H](CC(C)C)NC(=O)[C@H](CC(=O)O)NC(=O)[C@@H](NC(=O)[C@H](CC(C)C)NC(=O)[C@H](CO)NC(=O)[C@H](CCC(=O)O)NC(=O)[C@H](CC(N)=O)NC(=O)[C@H](CC(C)C)NC(=O)[C@H](CCCCN)NC(=O)[C@H](CCCCN)NC(=O)[C@H](C)NC(=O)[C@@H](NC(=O)[C@H](CCC(=O)O)NC(=O)[C@H](CC(N)=O)NC(=O)[C@H](CC(C)C)NC(=O)[C@H](CCCNC(=N)N)NC(=O)[C@H](CCCCN)NC(=O)[C@@H](NC(=O)[C@H](CCC(=O)O)NC(=O)[C@H](CCC(=O)O)NC(=O)[C@H](CCC(N)=O)NC(=O)[C@@H](NC(=O)[C@H](CC(N)=O)NC(=O)[C@@H](NC(=O)[C@@H](NC(=O)[C@H](CO)NC(=O)[C@H](C)NC(=O)[C@H](CC(N)=O)NC(=O)[C@@H](NC(=O)CNC(=O)[C@H](CO)NC(=O)[C@@H](NC(C)=O)[C@@H](C)CC)[C@@H](C)CC)C(C)C)C(C)C)[C@@H](C)CC)[C@@H](C)CC)C(C)C)[C@@H](C)CC)C(N)=O)C(N)=O)[C@@H](C)CC)C(C)C)[C@@H](C)CC)[C@@H](C)CC)C(C)C)C(C)C)[C@@H](C)CC	SARS-CoV-2 Wuhan	viral replication	VeroE6/TMPRSS2 cells	–	reference: corresponding monomer	fold change IC50 vs corresponding monomer	1.24
O=[N+]([O-])c1ccc(-n2nc(-c3ccc(F)cc3)cc2-c2ccc(F)cc2)c([N+](=O)[O-])c1	Japanese encephalitis virus	–	SA14-14-2, BALB/c mice, spleen	ip, 100 mg/kg/day	reference: untreated	viral RNA reduction	> 70%
COc1ccc(C2=[N+]([O-])c3ccccc3N3CCCN=C23)cc1	Clostridium perfringens	–	–	–	–	MIC	4 to 64 µg/mL (≈ 13 to 208 µM)
Nc1nc(Nc2ccc(Cl)cc2)nn1S(=O)(=O)c1ccc2ccccc2c1	Eastern equine encephalitis virus	viral replication	Huh-7	–	–	EC50	> 6.2 µM
CC(C)CC(C(=O)N1CC2(CC1C#N)C(=O)Nc1ccccc12)N(C)C(=O)c1cc2c(F)cc(F)c(F)c2[nH]1 (stereo not drawn)	SARS-CoV-2	viral replication, infectious virus	Vero E6	0.004 µM	–	inhibition	42.4%
Oc1ccc(Br)cc1-c1nc2cc(C(F)(F)F)ccc2s1	SARS-CoV-2 replicon	N-HiBiT luminescence	HeLa	2 µM	reference: DMSO	replicon activity	82.8% and 80% and 57.5% and 43.4% and 60.3% and 85.6%
COc1ccc(C2=[N+]([O-])c3ccccc3N3CCN=C23)cc1	Clostridium butyricum	–	–	–	–	MIC	≤ 0.06 µg/mL
COC(=O)c1ncn(CCOC(C)=O)c1C(=O)OC	Mammarenavirus lassaense	viral replication	Vero	48 h	–	IC90	58 µg/mL
CCC(NC(=O)NNS(=O)(=O)c1ccc(C)cc1)(C(F)(F)F)C(F)(F)F	Vaccinia virus	–	Vero	concentration not given	–	antiviral activity	inactive
O=C(O)c1ncn(COCCOCc2ccccc2)c1C(=O)O	Mammarenavirus lassaense	viral replication, inhibitor	Vero	48 h	–	IC50	18 µg/mL (≈ 56.2 µM)
C[C@@H]1CCCN1CCc1cc2cc(-c3ccc(C#N)cc3)ccc2o1	Naegleria fowleri	alamarBlue	ATCC 30808	48 h, trophozoites	–	IC90	14.7 ± 4.09 µM
COC(=O)c1ncn(C2OC(COC(=O)c3ccccc3)C(OC(=O)c3ccccc3)C2OC(=O)c2ccccc2)c1C(=O)OC (stereo not drawn)	Mammarenavirus lassaense	viral replication	Vero	48 h	–	IC90	> 50 µg/mL
O=S(=O)(O)c1c2ccccc2c(-c2c3nc(c(-c4c5ccccc5c(S(=O)(=O)O)c5ccccc45)c4ccc([nH]4)c(-c4c5ccccc5c(S(=O)(=O)O)c5ccccc45)c4nc(c(-c5c6ccccc6c(S(=O)(=O)O)c6ccccc56)c5ccc2[nH]5)C=C4)C=C3)c2ccccc12	vaccinia virus	–	CV-1, WR	50 µg/mL, 16 h	–	viral titre	580000 PFU/mL
N#Cc1ncn(C2OC(CO)C(O)C2O)c1C#N (stereo not drawn)	Mammarenavirus lassaense	viral replication, inhibitor	Vero	48 h	–	IC50	> 50 µg/mL
[O-][N+]1=C(c2ccsc2)C2=NCCCN2c2ccccc21	Clostridium butyricum	–	–	–	–	MIC	0.25 µg/mL (≈ 0.882 µM)
Cc1ccc(N2CC(N3CCC(C)(O)CC3)C2)cc1C(=O)NC1(c2ccc3c4c(cccc24)C(=O)N3C)CC1	SARS-CoV-2	viral replication	Vero C1008, Omicron BA.5	12.5 µM	–	inhibition	100%
CC(=O)c1ccc2c(c1)N(CCCN(C)C)c1ccccc1S2	SARS coronavirus	–	Vero 76, Urbani	–	–	EC90	21.5 ± 14.6 µM
Cc1ccc(NS(=O)(=O)c2c(C(=O)N3CCCCCC3)c(C)n(C)c2C)c(Cl)c1	Monkeypox virus	qPCR	Vero C1008, wild type	0.16 µM, 72 h	reference: untreated	relative infection	44.8% and 30.7% and 49.4%
[O-][N+]1=C(c2ccc(Cl)cc2)C2=NCCCCN2c2ccccc21	Clostridium perfringens	microbial growth	–	–	–	MIC50	16 µg/mL (≈ 49.1 µM)
CC[C@H](C)[C@H](NC(=O)[C@H](CCCCN)NC(=O)[C@H](CCCCN)NC(=O)[C@H](CC(C)C)NC(=O)[C@H](Cc1c[nH]c2ccccc12)NC(=O)CN)C(=O)NCC(=O)N[C@@H](CCCCN)C(=O)N[C@@H](CCCCN)C(=O)N[C@H](C(=O)N[C@@H](CCC(=O)O)C(=O)N[C@@H](CCCNC(=N)N)C(=O)N[C@H](C(=O)NCC(=O)N[C@@H](CCC(N)=O)C(=O)N[C@@H](Cc1c[nH]cn1)C(=O)N[C@H](C(=O)N[C@@H](CCCNC(=N)N)C(=O)N[C@@H](CC(=O)O)C(=O)N[C@@H](C)C(=O)N[C@H](C(=O)N[C@H](C(=O)N[C@@H](CCC(N)=O)C(=O)N[C@H](C(=O)N[C@H](C(=O)NCC(=O)N[C@H](C(=O)N[C@@H](C)C(=O)N[C@@H](CCC(N)=O)C(=O)N[C@@H](CCC(N)=O)C(=O)N[C@@H](C)C(=O)N[C@@H](C)C(=O)N[C@@H](CC(N)=O)C(=O)N[C@H](C(=O)N[C@@H](C)C(=O)N[C@@H](C)C(=O)N[C@H](C(=O)N[C@@H](CC(C)C)C(=O)N[C@@H](CCCCN)C(N)=O)[C@@H](C)O)C(C)C)C(C)C)[C@@H](C)CC)[C@@H](C)O)[C@@H](C)CC)[C@@H](C)O)[C@@H](C)O)C(C)C)[C@@H](C)CC	Acinetobacter baumannii	broth microdilution	RKI 19/09, CAMHB with 10% mouse serum	–	–	MIC	0.25 µg/mL (≈ 0.0595 µM)

For quick reference, copied from above:
Structure (SMILES)	organism	assay	system	conditions	how to read	measurement	value
Cc1ccc(N2CC(N3CCC(C)(O)CC3)C2)cc1C(=O)NC1(c2ccc3c4c(cccc24)C(=O)N3C)CC1	SARS-CoV-2	viral replication	Vero C1008, Omicron BA.5	12.5 µM	–	inhibition	100%
